Measured values pooled from the literature.
Every numbered part comes from another study and shows a few of its results, in no order.

Series 1
Target: Centromere-binding protein 1, full length, N-terminal tag (CBF1, Saccharomyces cerevisiae, UniProt P17106, residues 1-351)
Chain of UniProt P17106 (whole entry, looked up): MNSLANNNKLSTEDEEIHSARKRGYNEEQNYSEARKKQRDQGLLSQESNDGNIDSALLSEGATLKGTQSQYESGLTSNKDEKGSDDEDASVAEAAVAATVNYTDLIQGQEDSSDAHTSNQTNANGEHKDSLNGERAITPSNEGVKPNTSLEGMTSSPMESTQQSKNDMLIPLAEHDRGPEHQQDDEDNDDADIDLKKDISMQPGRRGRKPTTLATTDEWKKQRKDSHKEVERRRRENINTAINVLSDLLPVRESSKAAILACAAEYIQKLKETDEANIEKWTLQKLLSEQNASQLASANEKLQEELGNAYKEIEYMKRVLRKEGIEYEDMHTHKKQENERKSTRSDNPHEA
Method: protein-binding microarray
Form: double-stranded DNA, one strand shown
Matrix: in vitro
Tested at: 0.8 µM
Setting: whole 60-bp probe, no competitor
Reading: higher = stronger binding
Constant ends, left off below: … GTCTTGATTCGCTTGACGCTGCTG
Sequence	fluorescence intensity [a.u.]
CTAATCCCTGCGGTGGACGTGGCTAAAGAATAGTTC	525
CTATGTTAATAGATGCACGTTTCATTGACATCTTTC	675
GAATTAGGTTGATGCCACGCACGACAATGTAGCTAG	511
CTAGCTGAATTGCTAATCGTGATACTGCATCATTTC	536
GAACATTCGTAACCATGTGAGATGCTCAAATGTTAG	769
GAAATAATGTGTGAAAACGTGATGCTTTCTCGATAG	1350
GAATCCTAGGTCCATCAGCTACTGCACATTCTTTAG	512

Series 2
Target: Histone acetyltransferase KAT6A, winged helix 2, GST fusion (KAT6A, Homo sapiens, UniProt Q92794, residues 85-181)
Method: protein binding microarray
Form: double-stranded DNA, one strand shown
Matrix: in vitro
Tested at: not given
Setting: 8-mer, flanks averaged, mean of 2 arrays, mostly near background
Reference: not given
Reading: higher = stronger binding
Construct (chain): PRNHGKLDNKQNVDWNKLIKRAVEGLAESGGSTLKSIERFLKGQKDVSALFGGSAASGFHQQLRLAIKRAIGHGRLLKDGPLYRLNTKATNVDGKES
Sequence	E-score
CGGTGTTA	-0.0515
CCCGGCTA	0.193
GACATAAC	-0.132
CATATGCA	0.0436
ACTCACCA	-0.134
ACTCCCTC	-0.112

Series 3
Target: Interferon regulatory factor 7, full length, phosphomimetic (IRF7, Homo sapiens, UniProt Q92985, residues 1-503, S101K/S471D/S472D/S475D/S476D/S477D/S483D/S484D/S487D)
Chain of UniProt Q92985 (whole entry, unmodified, looked up): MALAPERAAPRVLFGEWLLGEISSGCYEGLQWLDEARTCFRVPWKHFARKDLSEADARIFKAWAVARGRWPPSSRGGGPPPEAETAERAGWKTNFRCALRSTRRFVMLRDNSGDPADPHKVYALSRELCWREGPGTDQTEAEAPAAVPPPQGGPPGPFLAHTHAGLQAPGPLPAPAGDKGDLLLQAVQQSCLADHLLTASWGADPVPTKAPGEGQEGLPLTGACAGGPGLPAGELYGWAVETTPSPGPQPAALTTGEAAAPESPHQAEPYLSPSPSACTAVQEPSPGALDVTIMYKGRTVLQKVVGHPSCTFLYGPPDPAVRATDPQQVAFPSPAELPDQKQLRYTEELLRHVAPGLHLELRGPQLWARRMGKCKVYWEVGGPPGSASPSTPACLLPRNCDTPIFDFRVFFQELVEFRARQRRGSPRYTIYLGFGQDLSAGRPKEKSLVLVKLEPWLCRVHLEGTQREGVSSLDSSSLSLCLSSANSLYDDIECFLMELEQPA
Method: protein-binding microarray
Form: double-stranded DNA, one strand shown
Matrix: in vitro
Tested at: 250 nM
Setting: 60-bp whole probe
Added: salmon DNA 0.4 mg/ml
Reference: random background probes
Reading: higher = stronger binding
Constant ends, left off below: GCCTAGCAC … GTCTTGATTCGCTTGACGCTGCTG
Sequence	log fluorescence [z-score]
TTAGGGATCCTTTTCCTTTAGTGCTAG	1.37
TTAAGACTGGGTATCGGTTAGTGCTAG	0.775
GAGGGTTTCGGTATCGGGACGTGCTAG	7.95
AACGAACTGGGGTTTCGAGACGTGCTA	2.37
TTAGATATCAGTTTAGATTAGTGCTAG	0.445
TCACCTCTAGACTCTAAAACTGTGCTA	0.179
TTAGGTATCCTTTTACTTTAGTGCTAG	1.55
GACGAACTGGGGTTTCGAGTCGTGCTA	5.68
TTAGATCTCAGACTGGATCAGTGCTAG	-0.211

Further values, each from its own experiment
Molecule	target	assay	system	setting	scale	measurement	result
PhoQ, residues 284 288 289 292 302 303 SQSLSM	PhoP, residues 12 14 15 18 19 STHWV (Escherichia coli, UniProt P23836)	Sort-seq, measured: YFP reporter	E. coli	PhoQ-PhoP variant library, added: 10 µM Mg2+	reference: high Mg2+ state, higher = stronger signaling	fold induction	0.774

Some of these lines once more (series 1):
Sequence	fluorescence intensity [a.u.]
GAACATTCGTAACCATGTGAGATGCTCAAATGTTAG	769
GAAATAATGTGTGAAAACGTGATGCTTTCTCGATAG	1350
GAATCCTAGGTCCATCAGCTACTGCACATTCTTTAG	512
